# Results pooled from the literature.
# Each numbered part is a random draw from the data of one study; scales do not carry over between parts. Substitutions count along the parent as printed.

# Series 1
# Target: CCND1, cyclin fold, Cln2 fusion (human)
# Method: yeast growth competition, sequencing
# Sample: yeast
# Notes: weak parent motif
# Baseline: not given
# Reading: higher = stronger binding
# Starting sequence: ITGB3BP docking peptide (human); MPVKRSLKLDGLL
Substitution,normalised enrichment score
APVKRSLKLDGLL [M1A],-0.23
MPVKKSLKLDGLL [R5K],-0.0275
MPVKRSLKLDALL [G11A],0.0635
MPVKRSLKLAGLL [D10A],-0.047
MPVKRSLKLDGLA [L13A],-0.0565
MPVARSLKLDGLL [K4A],0.374
MPVKRSLALDGLL [K8A],0.14

# Series 2
# Target: RNA binding protein fox-1 homolog 2, RRM domain, GST-SBP tag (RBFOX2, Homo sapiens, UniProt O43251-10, residues 100-194)
# Method: RNA Bind-n-Seq
# Form: RNA
# Sample: in vitro
# Tested at: 365 nM
# Notes: natural RNA segment, single round, ends assumed
# Baseline: no-protein control
# Reading: higher = stronger binding
# Shared flanks, not repeated: GGGAGUUCUACAGUCCGACGAUC … UGGAAUUCUCGGGUGCCAA
# Target sequence (chain): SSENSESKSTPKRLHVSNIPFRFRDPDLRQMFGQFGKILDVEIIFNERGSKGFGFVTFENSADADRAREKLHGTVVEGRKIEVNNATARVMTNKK
Oligonucleotide,RBNS enrichment (R)
CAACUCUGUAACAUGGACGCAACCUCAACCCGGCGCAGUUACAACUUCACUGUCAGUGGAAGGGGAGCGAAACCAACUCGAAUCAACUUAUACAUGGAAACAGCAAACAU,0.313
UGAUAUAACCCUUUGCUUCUUAUAAUGAGUGCGAUAUAUGUUGUCGAGGCUGUUCUUCAAGAAUUAAAAUUGAAGUGAAAAUUUAAACAAAAAUAAAAGAAUUUAGCAAA,1.18
GCUCCUGUAUUUCUGUGUUCCUCGGCCCUCUUGUCUGCCCAUUUCGUGUCCAGAGAGGGACAGGGUCUCAUUGUCACCCUCCAAAUACAUAAAGGCUGGUUCAGAAUGUU,0.319
UGGAGGGAAGGAUUUGGCAAAGGUGCAUGUGUUUGGGCAGGAAAAGGCCAAGUGAAAUCUAUGCCCUACGGGAGCCAUUCCCAAUCCUGAGUUUCUCAGACUUGGCAAUG,5.65
UAUUUGAAGAACAAUGCAAAAUGAGGCUUUCAUUGAAGGGAGAAAAGAGAAAAAAAGAAAAAAAAAACCUGUCUCUGUUCUUUUUUUCUCUCUCUCAUUAAGAAGCAAAA,0.968
CAGCCAGCUCCCCUGCAUCCCUUACAGCCAACAGCUCCCUUCAGGCUUAGAGCAGGGGGAAUGGCAGGGAUUAAGAGCUCAGCUCAGAGCCAGUUACCAAGAUGGAAUGG,0.409
UAGAAAACGUUGAACACUCCUACUGCCUGGAUAUAUGGUAGUGCAGUUAUGUUGUUUAUGGCUCAAGAUGUCAUUAGAAAUACUGCAGUGGUGUAUUCACAGCUGCUCCU,0.34
AAUGUUAGAGCACAGUACAUAAUACACUUGCCCUGCUCCCUCUCCCCCUUACCCCACAACGUGCAACUGACACUCCCACCCAGUCUCUGCUCCACCUUUCAGCCCACGUC,0.858
CGAGUCAAAAGCUUCAGUGAGUUACAUCUCAUUCAAUCUCCAGAAGAUUGGGAUUAUCGUCUUCUAAGAGGUUGCUAAUGCCUUUCAUCUUGAAGUUACACAUAACUUCU,0.337
UUUGUGUAAAUUUGUAUCCACACAAAUUCAGUCUCUGAAUACACAGUAUUCAGAGUCUCUGAUACACAGUAAUUGUGACAAUAGGGCUAAAUGUUUAAAGAAAUCAAAAG,0.323
AAGGAAGAACCAAAAGCCAAGUUAAAGCUGAGAGCACAAGUGCUGCAUGGAAAGGCAAUAUCUCUGGUGGAAAAAACUCGUCUACAUCGACCUCCGUUUGUACAUUCCAU,41
UGUUUUUUAGGGGAAAGGGAUUCUAAGAAUGUCAUUUAAUGUACUUUGCAUCAUGUCUCUAGAAAUAUCUUUGUCCAUAGUGGUGGUGGAGUCUCUCUCUCUCUCUCUCU,0.428

# Series 3
# Target: Ras GTPase-activating protein-binding protein 1, full length (G3BP1, Homo sapiens, UniProt Q13283)
# Sequence of UniProt Q13283 (whole entry, looked up): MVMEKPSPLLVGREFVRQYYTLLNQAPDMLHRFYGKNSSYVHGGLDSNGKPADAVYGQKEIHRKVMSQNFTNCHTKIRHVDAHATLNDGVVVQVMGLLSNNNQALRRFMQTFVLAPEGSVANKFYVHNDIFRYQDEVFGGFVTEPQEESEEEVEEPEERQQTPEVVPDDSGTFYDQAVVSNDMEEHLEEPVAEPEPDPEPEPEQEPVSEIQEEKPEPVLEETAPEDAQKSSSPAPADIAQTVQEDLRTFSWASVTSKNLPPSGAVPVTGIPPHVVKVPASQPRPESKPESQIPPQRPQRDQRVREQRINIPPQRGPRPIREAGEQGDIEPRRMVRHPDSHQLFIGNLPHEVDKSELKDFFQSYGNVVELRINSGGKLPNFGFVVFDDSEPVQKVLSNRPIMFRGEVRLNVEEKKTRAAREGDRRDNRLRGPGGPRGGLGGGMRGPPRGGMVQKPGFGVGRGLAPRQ
# Method: RNA Bind-n-Seq
# Form: RNA
# Sample: in vitro
# Tested at: 200 nM
# Notes: whole 134-nt RNA, ends assumed
# Added: 150 mM LiCl
# Baseline: input library
# Reading: higher = stronger binding
# All molecules: 7-deaza-guanosine replaces G
# Shared flanks, not repeated: GGGAGUUCUACAGUCCGACGAUC … UGGAAUUCUCGGGUGUCAAGG
Oligonucleotide,log2 enrichment
UCCUGUGCUACACAUCGUAUGUACCGAAUCGGGAAAAAGGGAAAAAAAGGGUUUUUGGGAAAGUAUUAUGUUACGCCGUUCGGAUCUGCA,-0.911
ACCAUGCAGGUGGGCAUCUUUCGGAAGUGGGGCAAGGGGGGGAUAGGGAGGGGGGUAACACUUUGGGAACAGGUGGUCCCAGGUCGUUUC,0.405
AAGUCCUGUGCUACACAUCGUAUGUACCGAAUCGGGAAAAAAAGGGUGGGAAAGGGAAAGUAUUAUGUUACGCCGUUCGGAUCUGCACUU,-0.407
CAAGUCCUGUGCUACACAUCGUAUGUACCGAAUCGGGGCCCGGGCCCGGCCCGGGGAAAGUAUUAUGUUACGCCGUUCGGAUCUGCACUU,-0.655
UUCCUCAAGUCCUGUGCUACACAUCGUAUGUACCGAAUCGGUGGUGGAGGAAAGUAUUAUGUUACGCCGUUCGGAUCUGCACUUCCAGCA,-0.565
CCUGUGCUACACAUCGUAUGUACCGAAUCGGGGAAAAAGGGGUUUUUGGGGAAAAAGGGGAAAGUAUUAUGUUACGCCGUUCGGAUCUGC,0.402
CACAGGCAACACGCACCCACACAGACACAGAGGGAAGGGGUUGGGAUGGGGACAGGGUGCACAGCAGGGCGGGGUAGGACCCCAGCCCCU,0.258

# Series 4
# Target: ABI1, truncated, D143A, DHFR fusion (Arabidopsis thaliana)
# Method: DHFR PCA, deep sequencing
# Sample: yeast
# Notes: methotrexate growth selection, single substitutions
# Added: (+)-ABA 200 µM
# Baseline: wild-type fitted maximum
# Reading: higher = stronger binding
# Starting sequence: PYL1, truncated, DHFR fusion (Arabidopsis thaliana); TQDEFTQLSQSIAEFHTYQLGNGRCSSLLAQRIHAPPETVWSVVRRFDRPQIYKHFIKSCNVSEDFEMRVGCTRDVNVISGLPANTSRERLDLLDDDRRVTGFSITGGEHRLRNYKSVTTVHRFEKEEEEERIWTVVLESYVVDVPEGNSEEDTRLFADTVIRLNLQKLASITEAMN
Substitution,relative binding score [%]
A170L,63.9
L29D,9.8
N22Y,101
S42D,97.5
D144L,52.1
V44P,-3.55
N61E,107
A30G,94.1
S27V,7.9
T135K,-4.41
H34Q,90.8
T6D,97.1
Q19A,97.4
L169G,4.07

# Series 5
# Target: PABPC1L2, full length, GST fusion (mouse, UniProt A0ABA7IW68)
# Method: RNAcompete
# Form: RNA
# Sample: in vitro
# Tested at: 20 nM
# Notes: 7-mer, probes averaged, single round
# Baseline: mean of 7-mers
# Reading: higher = stronger binding
Oligonucleotide,7-mer Z-score
AAUCUGU,-0.0283
CGGGGUU,-0.17
ACUAUGU,-0.117
UCAUAGU,-0.193
GAAAUUC,0.273
AGAAUGC,-0.0536
GAGACUA,0.0768
UCACGCU,-0.383
GUUACUC,-0.289
AAUUCUA,-0.13
CUUCCUA,-0.325
GGUACUU,-0.117
AUUUUGG,-0.162

# Series 6
# Target: Interferon regulatory factor 7, full length, phosphomimetic (IRF7, Homo sapiens, UniProt Q92985, residues 1-503, S471D/S472D/S475D/S476D/S477D/S483D/S484D/S487D)
# Method: protein-binding microarray
# Form: double-stranded DNA, one strand shown
# Sample: in vitro
# Tested at: 2200 nM top
# Notes: 60-bp whole probe
# Added: salmon DNA 0.4 mg/ml
# Baseline: random background probes
# Reading: higher = stronger binding
# Shared flanks, not repeated: GCCTAGCAC … GTCTTGATTCGCTTGACGCTGCTG
# Residues (chain): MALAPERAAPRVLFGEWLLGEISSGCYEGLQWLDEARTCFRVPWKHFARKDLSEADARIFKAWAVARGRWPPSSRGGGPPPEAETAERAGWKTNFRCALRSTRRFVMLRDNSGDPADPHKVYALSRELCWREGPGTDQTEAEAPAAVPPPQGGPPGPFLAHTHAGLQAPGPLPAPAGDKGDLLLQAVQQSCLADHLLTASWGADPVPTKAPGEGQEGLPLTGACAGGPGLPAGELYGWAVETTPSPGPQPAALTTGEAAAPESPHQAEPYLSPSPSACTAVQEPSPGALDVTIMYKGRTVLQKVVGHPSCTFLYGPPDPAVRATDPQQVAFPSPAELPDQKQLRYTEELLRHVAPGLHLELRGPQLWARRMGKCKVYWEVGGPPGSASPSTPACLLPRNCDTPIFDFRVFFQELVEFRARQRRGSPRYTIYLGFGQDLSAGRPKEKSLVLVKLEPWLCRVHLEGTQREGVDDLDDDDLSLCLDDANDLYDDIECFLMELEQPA
Oligonucleotide,fitted relative affinity
TCAGGTCTCCTACTGCTTTAGTGCTAG,0.925 z-score
TTAGAACTGGGGTTTCGCTTAGTGCTA,1.75 z-score
GAAGGTATCGACTTTCGGGACGTGCTA,2.95 z-score
TCAGATATGCCAAATCTGACTGTGCTA,0.278 z-score
GACGATATCAGATTCGAGACGTGCTAG,0.763 z-score
TCAGTTCTCTTTTATTTACTGTGCTAG,2.33 z-score
TTAGGTTTCCGACTGCTTTAGTGCTAG,1.26 z-score
GACGGACTGTACACTGGGGACGTGCTA,-0.318 z-score
TCAAGTTCATGTTTTGGACTGTGCTAG,0.546 z-score
TTAGGACTGGGGTTTCCGTTAGTGCTA,0.156 z-score
TTAGGTCTCCTTGTCCTTTAGTGCTAG,0.986 z-score
